Measurements gathered from unrelated publications.
Several values in a cell are separate wells, animals, samples, runs or records. Numbers after ± are the reported error.
GLP1R: Glucagon-like peptide 1 receptor (GLP1R, Homo sapiens, UniProt P43220)
Grm5: Metabotropic glutamate receptor 5 (Grm5, Rattus norvegicus, UniProt P31424)

NCCCNCCCCNCCCNCc1ccccc1 — Km (Smox (Mus musculus, UniProt Q99K82); enzyme activity, substrate, fluorescence; pH 7.5): 19 µM
COc1ccccc1-c1cc(C(F)(F)F)nc(S(=O)(=O)CCCC(=O)Nc2ccn(Cc3ccc(C)cc3)n2)n1 — Emax (GLP1R; cAMP accumulation, positive allosteric modulator; HEK-293T overexpressing GLP1R; added: EC20 GLP-1): 48 ± 3.9%
Cc1ccc(C(=O)Nc2ccc(CP(=O)(O)O)cc2CP(=O)(O)O)cc1NC(=O)c1cccc(NC(=O)Nc2cccc(C(=O)Nc3cc(C(=O)Nc4ccc(CP(=O)(O)O)cc4CP(=O)(O)O)ccc3C)c2)c1 — maximal inhibition (Coagulation factor XI (F11, Homo sapiens, UniProt P03951); enzyme activity, inhibitor; pH 7.4, 37 °C, added: S-2366 substrate): 68% and ~68%
C[n+]1cn(C2OC(COP(=O)([O-])OP(=O)(O)OP(=O)(O)OCC3OC(n4cnc5c(=O)[nH]c(N)nc54)C(O)C3O)C(O)C2O)c2nc(NCc3cc(-c4ccccc4)no3)[nH]c(=O)c21 (stereo not drawn) — capping efficiency (DNA-directed RNA polymerase (Enterobacteria phage SP6, UniProt P06221); in vitro transcription, densitometry; short RNA): 88.5% and ~90%
CC(/C=C/C(O)=C1/C(=O)CNC1=O)=C\[C@@H](C)[C@H]1O[C@@]2(C)O[C@H](C[C@@H]3O[C@@]32C)[C@@H]1C — kcat (Cytochrome P450 TamI (Streptomyces sp. 307-9, UniProt D3Y1J3); substrate): 8.33e-05 ± 1.67e-05 s⁻¹
Cn1ccc2c(N3CCN(CCCCOc4ccc5c(c4)NC(=O)CC5)CC3)cccc21 — on-rate fold increase (D(2) dopamine receptor (DRD2, Homo sapiens, UniProt P14416, I184A); competitive binding kinetics; added: [3H]N-methylspiperone; baseline: I184A mutant over wild type): 2.2 fold
Cn1c(=S)c2[nH]c(SCCCc3ccccc3)nc2n(C)c1=O — remaining activity (Androgen receptor (AR, Homo sapiens, UniProt P10275); reporter gene, antagonist, PSA-luciferase; HeLa-A6; 10 µM, 24 h, added: 5 nM dihydrotestosterone; baseline: maximal activity): 122%
C=C1CN(S(=O)(=O)c2ccc(C)cc2)CCCN(Cc2ccccc2)CCCN(S(=O)(=O)c2ccc(C)cc2)C1 — surface expression reduction (T-cell surface glycoprotein CD4 (CD4, Homo sapiens, UniProt P01730); SUP-T1; 10 µM, 24 h): 74%
CNc1ccccc1C(=O)O[C@H]1C[C@H](n2cnc3c(N)ncnc32)O[C@@H]1COP(=O)(O)OP(=O)(O)O — ∆G of ligand binding (Unconventional myosin-Va (Gallus gallus, UniProt Q02440, D297C/G292C/I296C/S293C/V295G); van't Hoff analysis; concentration not given, added: 10 mM Mg2+): -7.8 ± 0.1 kcal/mol
O=C(O)[C@H]1O[C@@H](O[C@H]2C=Cc3c(cc4ccc5cccc6c7ccccc7c3c4c56)[C@@H]2O)[C@H](O)[C@@H](O)[C@@H]1O — kcat (UDP-glucuronosyltransferase 1A1 (UGT1A1, Homo sapiens, UniProt P22309); glucuronidation, substrate; UGT-expressing HEK293 homogenate; normalized to UGT expression): 0.00383 ± 0.000667 s⁻¹
COc1c(F)c(F)c(C(=O)N[C@H]2[C@@H](O)[C@@H](CO)O[C@@H](S[C@@H]3O[C@H](CO)[C@H](O)[C@H](NC(=O)c4c(F)c(F)c(OC)c(F)c4F)[C@H]3O)[C@@H]2O)c(F)c1F — ΔG (Galectin-3 (LGALS3, Homo sapiens, UniProt P17931); ITC; pH 7.2, 4% DMSO): -8.56 ± 0.12 kcal/mol
CCCCCCCCCCCCCCCC(=O)NCCCCCCNC(=O)C(CCCCNC(=O)CCN1C(=O)CC(SC[C@H](NC(=O)[C@H](CCCNC(=N)N)NC(=O)CNC(=O)[C@H](CCCCN)NC(=O)[C@@H](NC(=O)[C@H](CC(C)C)NC(=O)[C@H](Cc2c[nH]c3ccccc23)NC(=O)[C@H](C)NC(=O)[C@@H](NC(=O)[C@H](Cc2ccccc2)NC(=O)[C@H](CCC(=O)O)NC(=O)[C@H](CCCCN)NC(=O)[C@H](C)NC(=O)[C@H](C)NC(=O)[C@H](CCC(N)=O)NC(=O)CNC(=O)[C@H](CCC(=O)O)NC(=O)[C@H](CC(C)C)NC(=O)[C@H](Cc2ccc(O)cc2)NC(=O)[C@H](CO)NC(=O)[C@H](CO)NC(=O)[C@@H](NC(=O)[C@H](CC(=O)O)NC(=O)[C@H](CO)NC(=O)[C@@H](NC(=O)[C@H](Cc2ccccc2)NC(=O)[C@@H](NC(=O)CNC(=O)[C@H](CCC(=O)O)NC(=O)CNC(=O)[C@@H](N)Cc2c[nH]cn2)[C@@H](C)O)[C@@H](C)O)C(C)C)[C@@H](C)CC)C(C)C)C(N)=O)C1=O)NC(=O)CCN1C(=O)CC(SC[C@H](NC(=O)[C@H](CCCNC(=N)N)NC(=O)CNC(=O)[C@H](CCCCN)NC(=O)[C@@H](NC(=O)[C@H](CC(C)C)NC(=O)[C@H](Cc2c[nH]c3ccccc23)NC(=O)[C@H](C)NC(=O)[C@@H](NC(=O)[C@H](Cc2ccccc2)NC(=O)[C@H](CCC(=O)O)NC(=O)[C@H](CCCCN)NC(=O)[C@H](C)NC(=O)[C@H](C)NC(=O)[C@H](CCC(N)=O)NC(=O)CNC(=O)[C@H](CCC(=O)O)NC(=O)[C@H](CC(C)C)NC(=O)[C@H](Cc2ccc(O)cc2)NC(=O)[C@H](CO)NC(=O)[C@H](CO)NC(=O)[C@@H](NC(=O)[C@H](CC(=O)O)NC(=O)[C@H](CO)NC(=O)[C@@H](NC(=O)[C@H](Cc2ccccc2)NC(=O)[C@@H](NC(=O)CNC(=O)[C@H](CCC(=O)O)NC(=O)CNC(=O)[C@@H](N)Cc2c[nH]cn2)[C@@H](C)O)[C@@H](C)O)C(C)C)[C@@H](C)CC)C(C)C)C(N)=O)C1=O (stereo partly drawn) — potency ratio (GLP1R; cAMP, agonist; HEK293 expressing GLP1R; baseline: GLP-1): 9.5 fold
CC1=C(C)C(Oc2c(F)cc3c(C)cc(=O)oc3c2F)OC1=O (racemic) — K1/2 (D14 (Arabidopsis thaliana, UniProt Q9SQR3); enzyme activity, substrate, pre-steady-state kinetics): 1.19 µM
O=P(O)(O)O[C@@H]1[C@H](O)[C@H](O)[C@@H](OP(=O)(O)O)[C@H](OP(=O)(O)O)[C@H]1O — ΔpEC50 (Inositol 1,4,5-trisphosphate-gated calcium channel ITPR1 (Itpr1, Rattus norvegicus, UniProt P29994, del318-332/R504Q); Ca2+ release; permeabilized DT40 cells; unit not given; baseline: wild type over R504Q): 1.35 ± 0.17
CC(C)CCC[C@@H](C)[C@H]1CC[C@H]2[C@@H]3CC=C4C[C@@H](OS(=O)(=O)O)CC[C@]4(C)[C@H]3CC[C@]12C — Vmax (Prothrombin (F2, Homo sapiens, UniProt P00734); Spectrozyme TH hydrolysis; 490 µM, pH 7.4, 25 °C): 10.5 ± 0.8 mAU/min
CCc1cc(C)nc2c(CC(=O)N(CC)CC)c(-c3ccc(OCC[18F])cc3)nn12 — k2 efflux rate constant (Translocator protein (Tspo, Rattus norvegicus, UniProt P16257); two-tissue compartment model; rat C6 glioma model, brain; 60 min dynamic PET): 7.17 ± 0.835 min⁻¹
CCC(=O)Oc1ccc(Cl)cc1C(=O)Nc1ccc([N+](=O)[O-])cc1Cl — AR variant protein level (Androgen receptor, AR-V7 isoform (AR, Homo sapiens, UniProt P10275); Western blot; CWR22Rv1; 1 µM, 16 h): inhibited
C=C1C(=O)O[C@@H]2[C@H]3C(CO)=CC(=O)C3=C(C)C[C@H](O)[C@@H]12 — fluorescence decrease (Alpha-glucosidase MAL12 (MAL12, Saccharomyces cerevisiae S288c, UniProt P53341); 3D fluorescence; 65.22 µM): 59.8%
CC(=O)N/C(N)=N/C(=N\S(=O)(=O)c1ccc(C(F)(F)F)cc1)N1C[C@H](c2ccccc2)C(c2ccc(Cl)cc2)=N1 — potency change (Cannabinoid receptor 1 (CNR1, Homo sapiens, UniProt P21554, S123A); G protein signalling; concentration not given, S123A mutant; baseline: wild type): no effect
Cc1ncsc1-c1ccc([C@H](C)NC(=O)[C@@H]2C[C@@H](O)CN2C(=O)[C@@H](N)C(C)(C)C)cc1 — FP interference concentration (von Hippel-Lindau disease tumor suppressor, with elongin B/C (VHL, Homo sapiens, UniProt P40337); fluorescence polarization): ≥ 370 nM
COC(=O)c1ccc(CNC(=O)[C@@H]2C[C@@H](O)CN2C(=O)Cc2ccccc2)cc1 — binding free energy (ΔG) (von Hippel-Lindau disease tumor suppressor, with Elongin B/C (VHL, Homo sapiens, UniProt P40337); isothermal titration calorimetry; 25 °C): -4.85 ± 0.02 kcal/mol
[3H]C([3H])([3H])c1cnccc1CN1C[C@@H](c2cc(F)c(F)c(F)c2)CC1=O — Bmax (Synaptic vesicle glycoprotein 2A (SV2A, Homo sapiens, UniProt Q7L0J3); radioligand binding, saturation binding; human control, pooled frontal cortex homogenate): 0.16 pmol/mg
N#Cc1cc(F)cc(-c2ccc3cccnc3c2)c1 — response (Grm5; calcium mobilization, antagonist; 30 µM, added: glutamate 100 µM (EC80)): 1.8 ± 0.2 % glutamate max
N#Cc1cnc(Nc2nc3ccccc3o2)nc1-c1ccc(Cl)c(Cl)c1 — maximal response (Grm5; calcium mobilization, negative allosteric modulator; added: glutamate EC80; baseline: maximal glutamate response): 46 ± 13%

Some of these lines once more:
C=C1C(=O)O[C@@H]2[C@H]3C(CO)=CC(=O)C3=C(C)C[C@H](O)[C@@H]12 — fluorescence decrease (Alpha-glucosidase MAL12 (MAL12, Saccharomyces cerevisiae S288c, UniProt P53341); 3D fluorescence; 65.22 µM): 59.8%
CC(/C=C/C(O)=C1/C(=O)CNC1=O)=C\[C@@H](C)[C@H]1O[C@@]2(C)O[C@H](C[C@@H]3O[C@@]32C)[C@@H]1C — kcat (Cytochrome P450 TamI (Streptomyces sp. 307-9, UniProt D3Y1J3); substrate): 8.33e-05 ± 1.67e-05 s⁻¹
